Earlier results that unrelated publications cite.
Values joined by “and” are separate records of one study, mostly repeats; a detail may differ. Numbers after ± are the reported error.
B1: CCL1; sequence looked up; chain KSMQVPFSRCCFSFAEQEIPLRAILCYRNTSSICSNEGLIFKLKRGKEACALDTVGWVQRHRKMLRHCPSKRK

AMTLRKRKFAWYVLSSSLKWLIKKAKKIGVQVCGFE — MIC (Pseudomonas aeruginosa; peptide, ATCC 15692): 4 µM
ivermectin — logP: 6.22
teicoplanin — pKa: 2.9
coproporphyrin I — basal serum level (healthy volunteers; median): 0.7 nM
colistin — stability time (aqueous solution; 37 °C): 120 h
pegcetacoplan — serum level (Complement C3 (Homo sapiens, UniProt P01024); healthy human volunteers; 270 mg/day, 28 days): increased
IFFRRNKKMAVKVAINGFGRIGRLAFRQMFGRYIAKINPDNKKFKTMPSG — MIC (Pseudomonas aeruginosa; peptide, ATCC 15692): 9 µM
B1 (CCL1) — EC50 (CCR8 W251Q mutant; IP accumulation, agonist): 6.6 nM and 3.4 nM
Ac-LRKLRKRLLRDWLKAFYDKVAEKLKEAF-NH2 (N-acetyl, C-amide) — surface pressure (peptide, egg PC-water interface; lipid affinity): 45 dyn/cm
ALILTLVS — retention coefficient S (isocratic RP-HPLC, C18 column; peptide, water/acetonitrile, 0.1% TFA; 25 °C): 13.5
octreotide — oral bioavailability (human; oral, 20 mg, permeation-enhancing capsules): ~0.7%
LLGSLSLDAFR — retention coefficient S (isocratic RP-HPLC, C18 column; peptide, water/acetonitrile, 0.1% TFA; 25 °C): 17.4
pyridoxine — pKa (acidic): 5
LAGGSASSADAAFR — retention coefficient S (isocratic RP-HPLC, C18 column; peptide, water/acetonitrile, 0.1% TFA; 25 °C): 21.2
Teicoplanin — plasma protein binding (healthy volunteers): ~90%
LLSLLHFR — retention coefficient S (isocratic RP-HPLC, C18 column; peptide, water/acetonitrile, 0.1% TFA; 25 °C): 16.8
[18F]AlF-NOTA-octreotide — SUVmean (rat, naive, bone; 2 h post-injection, 46): 0.45 ± 0.03
